# Results collected from several papers.
# Each numbered part is a random draw from the data of one study; scales do not carry over between parts.

# Set 1
# Target: Fragile X messenger ribonucleoprotein 1, C-terminal low-complexity region (Fmr1, Mus musculus, UniProt P35922)
# Technique: RNA Bind-n-Seq
# Form: RNA
# Matrix: in vitro
# Concentration: 200 nM
# Notes: whole 134-nt RNA, ends assumed
# Together with: 150 mM KCl
# Relative to: input library
# Direction: higher = stronger binding
# Shared flanks, not repeated: GGGAGUUCUACAGUCCGACGAUC … UGGAAUUCUCGGGUGUCAAGG
Sequence,log2 enrichment
GUCCUGUGCUACACAUCGUAUGUACCGAAUCGGAAAAAAAGGAAAAAGGAAAAAAAGGAAAGUAUUAUGUUACGCCGUUCGGAUCUGCAC,-0.718
UGGCCCUGGUCGCAUGCGGGGAGGAAGAGGUGGCCUCAUGGAUCGUGGUGGUCCCGGUGGAAUGUUCAGAGGUGGCCGUGGUGGAGACAG,-0.00941
CACAGACAACACGCACCCACACAGACACAGAGGGAAGGGGUUGGGAUGGGGACACGGUGCACAGCAGGGCGGGGUAGGACCCCAGCCCCU,1.3
CACAGACAACACGCACCCACACAGACACAGAGGGAAGGGGUUGGGAUGGGGACAGGGUGCACAGCAGGGCGGGAAAGGACCCCAGCCCCU,1.31
UUCAGUUGGAUGGAUUUAUUGCUCGAAACUGGGCCAAUCAAAGAUCAGCUUUGGGAAGUGCUCUUGAUCCACUUGCUGAUAAAAUACUUA,-1.3
CACAGACAACACGCACUCACACAGACACAGAGGGAAGGGGUUGGGAUGGGGACAGGGUGCACAGCAGGGCGGGGUAGGACCCCAGCCCCU,1.14
CACAGACAACACGCACCCACACAGACACACAGGGAAGGGGUUGGGAUGGGGACAGGGUGCACAGCAGGGCGGGGUAGGACCCCAGCCCCU,1.27
CAAGUCCUGUGCUACACAUCGUAUGUACCGAAUCGGGGUGGGGUUUGGGGAGGGGAAAGUAUUAUGUUACGCCGUUCGGAUCUGCACUUC,1.32
CAAGUCCUGUGCUACACAUCGUAUGUACCGAAUCGGCCCGGGGCCCGGCCCGGGGAAAGUAUUAUGUUACGCCGUUCGGAUCUGCACUUC,-0.389

# Set 2
# Target: RING finger protein unkempt homolog, zinc fingers 1-6, SBP tag (UNK, Homo sapiens, UniProt Q9C0B0, residues 30-357)
# Sequence of UniProt Q9C0B0 (30-357, looked up): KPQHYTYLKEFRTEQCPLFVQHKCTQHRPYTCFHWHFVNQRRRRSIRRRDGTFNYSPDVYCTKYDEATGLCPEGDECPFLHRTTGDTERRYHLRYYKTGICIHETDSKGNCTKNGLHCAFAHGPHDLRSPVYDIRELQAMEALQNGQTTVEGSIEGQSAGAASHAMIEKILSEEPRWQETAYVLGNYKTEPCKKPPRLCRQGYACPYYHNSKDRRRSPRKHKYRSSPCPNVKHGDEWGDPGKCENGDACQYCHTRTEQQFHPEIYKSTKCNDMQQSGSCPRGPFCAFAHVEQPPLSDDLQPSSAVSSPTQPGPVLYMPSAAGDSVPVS
# Technique: RNA Bind-n-Seq
# Form: RNA
# Matrix: in vitro
# Concentration: 100 nM
# Notes: RNA with constant flanks, vertebrate orthologous sites, ends assumed
# Relative to: input RNA pool
# Direction: higher = stronger binding
# Shared flanks, not repeated: GGGAGUUCUACAGUCCGACGAUC … CAACAGAGGAUUGAGCAUCA
Sequence,bound/input enrichment
GCUGUGUAGAGUAGGGCCCUGUUCUCCUUAGGAUGUUGCUUCUUGAUUUUUUUUUUUUUUUAGGGGUGGGUCAGGGUUGUGACACACCAGCCCAGGUGAGAGCUGCUGCGGGUCACCUCA,2.42 ratio
GUGAGCAGUGGAUUCUGGAGCAGAGCAAGGAGCAAGUCAAGCAAACCUCCAGUGAAACUGCUGCCAUCUGCACUAUCGUUAACCUGCUGUCACCUUUUUCAUAUAUAUAUAAAAUACUUA,0.214 ratio
AAGAUGGUGGUUGUACAUUAUUUCAUUUAGAAAAUAUAAAAAUUCAUUUUGUUUUGAAGCUAGGUGUUAAACUGGAGUAGCUACUAUACCCCCAGAGAAUGGGGCAGUUGUGCCCUUCCC,1.22 ratio
AAUUGAAUAAAAACAUUUCCACUGGGUUUUGCCUGUAAGAAAAAAAUGUACCCGAGCCCAUAGAGCUUUUUAAUAAUAGCACUAACCAAUGCCUUUUUAGAUGUAUUUUUGAUGUAUAUA,1.51 ratio
UGAGCAUACAUAUACAAUGUGUUUCAAAUGCUGCUUGUAAAAUUAAACCAUCAUCUAGAGUAGAGUUAAUUUGUUAUAAUCAAGCUACAAAUAGGUUUUCUUAAACCAGAGAUGCACUGC,0.39 ratio
GCCAAACAAAAAGCCCAGGUUCUAGGUUUCCUUCACUUUAAAUCUAAUUCCACUGUUUAUUUUGUUAAAUUUUUAACUCUUGCAUUUUAGUAAGAAGCAUUUUUUUAUGGAUGCUCAGAU,0.677 ratio
AUUUAAAAUGUAGUUAGUUAUAUUUAAUGACCUCAUUCCUAAGUUCCUUUUUCGUUAAUGUAGCUUUCAUUUCUGUUAUUGCUGUUUGAGUAAUAUGAUUAAAUAGAAGGUUUGUGCCAG,0.426 ratio
CUCCCUAGCACCACAAAAAUAGAACUUUUUAAAAUUGUGUCGCCACCACUUCUAAAAAUUUAGCAAUAUUCGAAUAAAACACUAAUGAAGUAAAUCUUGCUUAUGGUGUUGCAAACCAGA,4.39 ratio

# Set 3
# Target: Phosphate system positive regulatory protein PHO4, full length, GST-tagged (PHO4, Saccharomyces cerevisiae, UniProt P07270, residues 1-312)
# Technique: competition protein-binding microarray
# Form: double-stranded DNA, one strand shown
# Matrix: in vitro
# Concentration: 2 µM
# Notes: whole 60-bp probe, lowest competitor level
# Together with: Cbf1 competitor, 0.05 µM
# Direction: higher = stronger binding
# Shared flanks, not repeated: … GTCTTGATTCGCTTGACGCTGCTG
# Residues (chain): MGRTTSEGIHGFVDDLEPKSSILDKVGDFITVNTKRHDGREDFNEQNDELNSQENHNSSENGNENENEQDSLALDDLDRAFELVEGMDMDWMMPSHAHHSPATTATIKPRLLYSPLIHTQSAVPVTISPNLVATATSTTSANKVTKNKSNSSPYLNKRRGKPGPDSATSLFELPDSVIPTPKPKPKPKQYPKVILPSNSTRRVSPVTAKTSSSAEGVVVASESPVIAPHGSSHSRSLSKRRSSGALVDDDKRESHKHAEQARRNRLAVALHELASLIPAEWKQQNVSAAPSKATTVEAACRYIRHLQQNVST
Sequence,fluorescence intensity
TTTTCTGATTGCCAGCCCGTGCGGATTAGGGATTTC,8590 a.u.
CGGGGTTAAGTTTGTCACGTGACTTGCTTGCAGCAG,12200 a.u.
CATACCCAACCTTGGTAAGTGGGTGAAGATATTTGT,3910 a.u.
TCCTGTATTTTAAAGCACGCAAGGCTGAAATAAACG,8290 a.u.
AAATTACTAAGTTGCTGAGTGGGTGACGCCGTATGA,4410 a.u.
TAACGGCTATCCCATCACGCTTTCACCGAGGAGACC,6030 a.u.
CGTCCTAGCGATTGAAGAGTGGGTGCCATGAGGAAG,5800 a.u.
AATAGCGAGGGTCGCCCCGTGGGACATGCTACTGAG,11400 a.u.
CATGCCTTTTGTTCGTCCGTGACTCGGTCCTTCAAT,4720 a.u.
AAATTACTAAGTTGTCACAGGACTTACCCCGTATGA,3320 a.u.
GGTGATAGCCATATCTTCGTGCTTTTGTTGCGATTG,6110 a.u.
CATACCCAACCTTGTCACGATACTTAAGATATTTGT,6800 a.u.
TTGAAGAGGATTTGACTCGTGTTGACAAGGCAATCA,8220 a.u.
CTTTGCCGCCTGAAACACGTGTTGAACAAGCCGCCC,15000 a.u.
AAAGCGGTAATTTGTCACGAGACTTCACATATCTAT,7270 a.u.
CATACCCAACCTTGATTGGTGGGTGAAGATATTTGT,3340 a.u.
AGTATATCTGATCCGCACGTGATGGCCACTTAATCG,15900 a.u.
CTTTCCCGATCTTGTCACGCAACTTTAGCACATTTG,5570 a.u.
GAGATACTTAAGCATCATGTGATGGTTTTGACACAA,6660 a.u.

# Set 4
# Target: RNA binding protein fox-1 homolog 2, RRM domain, GST-SBP tag (RBFOX2, Homo sapiens, UniProt O43251-10, residues 100-194)
# Technique: RNA Bind-n-Seq
# Form: RNA
# Matrix: in vitro
# Concentration: 365 nM
# Notes: natural RNA segment, single round, ends assumed
# Relative to: no-protein control
# Direction: higher = stronger binding
# Shared flanks, not repeated: GGGAGUUCUACAGUCCGACGAUC … UGGAAUUCUCGGGUGCCAA
# Target sequence (chain): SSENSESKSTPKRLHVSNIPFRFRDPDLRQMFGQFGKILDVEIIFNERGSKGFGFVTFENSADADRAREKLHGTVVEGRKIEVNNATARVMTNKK
Sequence,RBNS enrichment (R)
UUGAGACAUUCAUUGUUGCUUGACUGACAUUUUGGUCUGGGUUUUCUUUUAAUAUUUUAUUUUAAUUAAAAUUAGGAAAAAAUGUGUUCAACAAUUUUUUUUUUGUCCCA,0.643
UCCCUUUCUGACUGCCCAAGGGGCUCAGAACCCCAGCAAUCCCUUCCUUUCACUACCUUCUUUUUUGGGGGUAGUUGGAAGGGACUGAAAUUGUGGGGGGAAGGUAGGAG,0.355
UCUGCAGGCUGCUUGUAGGACUGUUCACCAAGGGGGAUACCAGCAGCAAGAGAGUGCACCCGUUUAGCCCUGGACCCUGUUUCUUACUGUGUGACUUGGCUAGAGUUGGG,1.02
AAGCAAUGGGCUGCUUCUCCCCAAUCCUCCCUAACAAUUCGUUGUGUGGACUUCUCAUCUAAAAGGUUAGUGGCUUUUGCUUGGGAUCAGUGCUCUCUAUUGAUGUUCUU,0.321
CCAAGAAGUUUUUUGGGCAAAAAUCUUGGAUCAUUUUUAUGUAGCAUGAUUUUCCUUGGGAUGCAAAUCUGAAACAGUCCUUUAACAUGAACAAUCUGCAGCACACUGAA,0.98
CAUAUGAAGAAAUGGAGACAUUAACUUCGUUCUAAAGCCUGAUUGUAGAUUGCUCCUUAAAACUGAACAGUUAGUGUUUGAAGUUGAAAUGCUGAAUAUAAUGUGAAUAG,1.18
GGCCAGCAGCUCCCAGUGUGACCUGACAAAAACACGUAGGGGCAGGGACGGUCCCCACCCCCAGGGACACAACCCCUGGUCUUGGACCAGUAGAGGACACGGAGGGUUCA,0.172
ACAUAACUUCCCCGGACUGUUCCAAUCUGAUAAUUUGUAAAUGCUUUAGAGUUUUUUUAAUUAACACUUGUGUUGCUAAAUUCUAUUUAUGUAAGUCUGCUAAAGUUUUU,0.764

# Repeated from above (set 3):
Sequence,fluorescence intensity
CATGCCTTTTGTTCGTCCGTGACTCGGTCCTTCAAT,4720 a.u.
AAATTACTAAGTTGTCACAGGACTTACCCCGTATGA,3320 a.u.
GGTGATAGCCATATCTTCGTGCTTTTGTTGCGATTG,6110 a.u.
